Measurements of several laboratories.
Each numbered part is a random draw from the data of one study; scales do not carry over between parts. Changes are numbered by the printed parent chain.

Set 1
Target: RNA binding protein fox-1 homolog 2, RRM domain, GST-SBP tag (RBFOX2, Homo sapiens, UniProt O43251-10, residues 100-194)
Technique: RNA Bind-n-Seq
Molecule type: RNA
Matrix: in vitro
Concentration: 365 nM
Setting: natural RNA segment, single round, ends assumed
Relative to: no-protein control
Reading: higher = stronger binding
All sequences stand within: GGGAGUUCUACAGUCCGACGAUC … UGGAAUUCUCGGGUGCCAA
Residues (chain): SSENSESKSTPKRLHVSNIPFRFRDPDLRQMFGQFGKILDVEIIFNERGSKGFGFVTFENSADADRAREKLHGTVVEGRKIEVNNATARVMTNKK
| Oligonucleotide | RBNS enrichment (R) |
| --- | --- |
| AUAUGCUUCUGUAAUAUGAAAUAGGUUAUUUGAUAACUGAGAAACUUUAAAUGUAUCAUGUGAGCAUAAGAGUCUGGAUUAUCUAACAUUGUUAGCCCUGUGUAUGUACA | 0.441 |
| GUCGCUGCCCCCACCAGAGUCCUAAAACCUGGAUGGACUUGGACGGGACAAGAGGCCUGGACUGAGAUGUGAGUCCCAUGGAAGACUUCCUCUCCACCCCCCACAUCGGU | 0.381 |
| UAGAGAUUAGGAGACCCUUUGUGGAAGAGUGAACUUCACAAAUAGCACAAGUUCAGAAGACACAGAGGGUGUCUUCUCACACACCACACUGUGACGAGGAACUGCCAUUG | 0.341 |
| UAGUCAAAUAAAUUACCUACUGGAAUAUAGCCCAAGCCAGUAAAGGUUUAAUAUUUGCAUUUUCGUGCUUUUAUUUUCUCCUUCCAUUCAUAAGUAUAUACUUGAAAGUA | 0.394 |
| AACCAGUGCUUUGGCCACUUUCAUGCUAGCAGAGUGGACCUUGGUCCUCCCUGCUUAGAAAGCUACUUUAGAAGCCAUUGUAGCCACAGUGGAAAGUCAAGGUUUGUGUC | 0.279 |
| AAUGUUAUUGGUGUCUUCACUGGAUAUGUUUGACUGCUGUGGACUUGUGUUGGGAGGAGGAUGUCCUCACUCGGAUGCCGACACGGGAGACAAUGGGAUGAAAGGCUUCA | 0.447 |
| AGAACUGGAUGAGCCAAACAGCCACCAUCUUUACUCUUGACUAAAUGGACCUAUCAAGAAUAUUAAAAAGCUUGGAAAUACCCUAUCCACUUUUGAAAAAUUAGAAUUCC | 0.422 |
| AUUAAACAGAUUGUCUCAUCGUUGCAUCUAUUUUCCAUGUAUUCAUCAAGAGACCAUUUUAUGACACAUUAAGAAGAAAGAACCUUUUUGAAACAAACUCCAGGCCCUUU | 0.738 |
| UCCACCCUUGGCCUGUCUCAUCCCCAGGGGUCCCAGCCACCCCGGGCUCUCUGCUGUACAUAUUUGAGACUAGUUUUUAUUCCUUGUGAAGAUGAUAUACUAUUUUUGUU | 0.273 |
| UCAGACCUGGAGUGCUCCCCAACCCCCACCUAUCAAAGCUGCUUUCAAGGUCAGGGUCAGCCCCAGCUGUGGCAGAGAAGACUCAAGUCUGGUGCCUGGCCUCUGCACUG | 0.262 |

Set 2
Target: Histone acetyltransferase KAT6A, both winged helices, GST fusion (KAT6A, Homo sapiens, UniProt Q92794, residues 1-181)
Technique: protein binding microarray
Molecule type: double-stranded DNA, one strand shown
Matrix: in vitro
Concentration: not given
Setting: 8-mer, flanks averaged, mean of 2 arrays, mostly near background
Relative to: not given
Reading: higher = stronger binding
Residues (chain): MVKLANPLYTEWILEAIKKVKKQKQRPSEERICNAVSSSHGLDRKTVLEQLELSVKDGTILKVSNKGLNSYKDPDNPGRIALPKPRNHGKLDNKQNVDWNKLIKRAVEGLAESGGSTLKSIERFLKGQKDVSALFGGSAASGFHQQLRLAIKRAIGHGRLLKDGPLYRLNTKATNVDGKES
| Oligonucleotide | E-score |
| --- | --- |
| CAAGTCAA | -0.188 |
| CGACGAAA | -0.187 |
| CTAGCAAG | -0.21 |
| CAAGACTG | -0.207 |
| CGGTGTAA | 0.122 |
| AGGTTAGG | -0.296 |
| CCACGCTC | 0.0134 |

Set 3
Target: CCNB1, cyclin fold, Cln2 fusion (human)
Technique: yeast growth competition, sequencing
Matrix: yeast
Setting: weak parent motif
Relative to: not given
Reading: higher = stronger binding
Parent: CDKN1B docking peptide (human); PSACRNLFGPVDH
| Variant | normalised enrichment score |
| --- | --- |
| PSWCRNLFGPVDH [A3W] | 0.539 |
| PSARRNLFGPVDH [C4R] | 0.37 |
| PSACRNYFGPVDH [L7Y] | 0.263 |
| PSAERNLFGPVDH [C4E] | 0.306 |
| PSACRNLFGPSDH [V11S] | 0.198 |
| PSACRNLFGIVDH [P10I] | 0.438 |

Single results of other studies
| Molecule | target | assay | test system | setting | scale | endpoint | result |
| --- | --- | --- | --- | --- | --- | --- | --- |
| PhoQ, residues 284 288 289 292 302 303 GLASVI | PhoP, residues 12 14 15 18 19 LWHCS (Escherichia coli, UniProt P23836) | Sort-seq, item: YFP reporter | E. coli | PhoQ-PhoP variant library, added: 10 µM Mg2+ | relative to: high Mg2+ state, higher = stronger signaling | fold induction | 9.05 |

For quick reference, copied from above (set 3):
| Variant | normalised enrichment score |
| --- | --- |
| PSWCRNLFGPVDH [A3W] | 0.539 |
| PSARRNLFGPVDH [C4R] | 0.37 |
